Assay results pooled from the literature.
Each line is one published result; not all experiments were run side by side. ± gives the spread as reported.

The CC50 of `N#Cc1ccc(Nc2nc(N)cc(Oc3ccc(-c4ccc(C#N)cc4)cc3C#N)n2)cc1` is reported as > 45 µM (MT4 uninfected).
With `COc1c(O[C@@H]2O[C@H](CO)[C@@H](O)[C@H](O)[C@H]2O)c(C)cc2c1C(=O)c1c(O)cccc1C2=O` the cell viability was 54.6 ± 7.46% (HK-2 co-cultured with HepaRG; MTT; 266.67 µM, 24 h; reference: untreated control).
`CCCCc1oc2ccccc2c1C(=O)c1cc(I)c(OCCN(CC)CC)c(I)c1` gave an ALERT score of 0 (H9 human embryonic stem cell aggregates; qRT-PCR; 3D aggregates; 0.5 µM, 5 days, developmental toxicity model; direction not given).
Under cytotoxicity, `CC1(C)C2CCC1(CS(=O)(=O)[O-])C(=O)C2.[Na+]` (racemic) is recorded as “not toxic” (THP-1; MTT; 50 µM).
With `COc1c(O)cc2c(c1O)C(=O)c1c(cc(C)c(O)c1OC)C2=O` the viability was 56.2 ± 3.9% (HK-2 co-cultured with HepaRG; MTT; 133.33 µM, 48 h; reference: untreated control).
`Cc1noc(C)c1Cn1cc(N2C(=O)CN(Cc3cccc(O)c3)C2=O)cn1`: “aberrant cells without gaps” 1% (human blood lymphocytes; 494.3 µg/mL, 3 h).
For `COc1c(O)c(C)cc2c1C(=O)c1c(O)cccc1C2=O`, the viability was 59.7 ± 6.33% (HK-2 co-cultured with HepaRG; MTT; 266.67 µM, 48 h; reference: untreated control).
The CC50 of `N#Cc1ccc(Nc2nc(N)cc(Oc3ccc(-c4ccc(C#N)cc4)c(C(F)(F)F)c3)n2)cc1` is reported as > 291 µM (MT4 uninfected).
The CC50 of `COC(=O)c1c(C)ncn1CC(c1c[nH]c2cc(Br)ccc12)c1c[nH]c2cc(Br)ccc12` is reported as > 20 µM (human primary fibroblasts; viability, MTS; 24 h).
With `N#Cc1ccc(Nc2nc(N)cc(Oc3ccc(-c4ccccc4)cc3F)n2)cc1` the CC50 was 29.6 ± 1.63 µM (MT4 uninfected).
Under “maximum non-toxic concentration”, `COc1ccc(-c2nc(N)nc(N)c2-c2nc3ccccc3s2)cc1` is recorded as 80 µg/mL (Huh7.5; cytotoxicity; 72 h).
For `O=C(CCNc1cnc(C(=O)Nc2cc(F)cc3cccnc23)cn1)NO`, cytotoxicity read “not toxic” (MIA PaCa-2; MTT; concentration not given).
`CCCC(CCC)NC(=O)c1ccc2c(c1)OCO2` — result for “cells with aberrations”: 0.5% (CHO-WBL; 5 mg/mL, 3 h, with rat liver S9).
For `Cc1ccc(-c2nc(NS(=O)(=O)c3ccc(C)cc3)nc(N)c2-c2nc3ccccc3s2)cc1`, “maximum non-toxic concentration” read 100 µg/mL (Huh7.5; cytotoxicity; 72 h).
`CCCCc1oc2ccc(NS(C)(=O)=O)cc2c1C(=O)c1ccc(OCCCN(CCCC)CCCC)cc1` has an ALERT score of 0 (H9 human embryonic stem cell aggregates; qRT-PCR; 3D aggregates; 0.025 µM, 5 days, developmental toxicity model; direction not given).
`CC(C)NCCCn1c(Sc2cc3c(cc2I)OCO3)nc2c(N)ncnc21` has an EC50 of > 60 µM (MYBPC3-mutant iPSC cardiomyocytes; cell viability; 24 h).
The CC50 of `C[C@@H]1[C@H](O)[C@@H](C)/C=C/C=C/C=C/C=C/C=C/C=C/C=C/[C@H](O[C@@H]2O[C@H](C)[C@@H](O)[C@H](N)[C@@H]2O)C[C@@H]2O[C@](O)(C[C@@H](O)C[C@@H](O)[C@H](O)CC[C@@H](O)C[C@@H](O)CC(=O)O[C@H]1C)C[C@H](O)[C@H]2C(=O)O` is reported as 5.03 µM (human primary fibroblasts; viability, MTS; 24 h).
`CSc1c(-c2nc3ccccc3s2)c(N)n(NS(=O)(=O)c2ccc(C)cc2)c(=O)c1C#N` — result for “maximum non-toxic concentration”: 100 µg/mL (Huh7.5; 72 h).
`Cc1cc(C(=O)NC(C)(C)COc2cccc3c2C(N)=NS(=O)(=O)N3)cc(C)n1` gave a cytotoxicity of -5% (human peripheral blood lymphocytes; CBPI, concurrent micronucleus test; 1000 µg/mL, 4 h, together with: rat liver S9; reference: vehicle control).
For `C/C(O)=C(\C#N)C(=O)Nc1ccc(C(F)(F)F)cc1`, “free drug concentration” read 260 nM (SIRC; culture medium; 1 µM, 48 h).
`CC(=O)c1c(C)cc2cc(O)cc(O[C@@H]3O[C@H](CO)[C@@H](O)[C@H](O)[C@H]3O)c2c1O` has a cell viability of 118 ± 13.2% (HK-2 co-cultured with HepaRG; MTT; 33.33 µM, 24 h; reference: untreated control).
For `Cc1ccc(S(=O)(=O)Nc2nc(N)c(-c3nc4ccccc4s3)c(-c3ccccc3)n2)cc1`, “maximum non-toxic concentration” read 90 µg/mL (Huh7.5; cytotoxicity; 72 h).
With `Cc1cc(O)c2c(c1)C(=O)c1cccc(O)c1C2=O` the viability was 88.5 ± 10.9% (HK-2 co-cultured with HepaRG; MTT; 66.67 µM, 24 h; reference: untreated control).
For `CC(=O)OC[C@H]1O[C@@H]([S-])[C@H](OC(C)=O)[C@@H](OC(C)=O)[C@@H]1OC(C)=O.CCP(CC)CC.[Au+]`, cytotoxicity read “not toxic” (RPMI-8226; XTT; 0.1 µM, 3 days).
`Cc1ccnc2c1NC(=O)c1cccnc1N2C1CC1` has a CC50 of > 15 µM (MT4 uninfected).
`N#Cc1cc(C#N)c(=O)n(NS(=O)(=O)c2ccccc2)c1N`: “maximum non-toxic concentration” 90 µg/mL (Huh7.5; 72 h).
For `c1csc(CNc2cc[nH]n2)c1`, “cells with structural aberrations” read 1% (human peripheral blood lymphocytes, female; 25 µg/mL, 20 h, without S9).
With `N#Cc1ccc(Nc2nc(N)cc(Oc3ccc(-c4ccc(C#N)cc4)cc3F)n2)cc1` the CC50 was 221 µM (MT4 uninfected).
`CSc1c(-c2nc3ccccc3[nH]2)c(N)n(NS(=O)(=O)c2ccccc2)c(=O)c1C#N` — result for “maximum non-toxic concentration”: 100 µg/mL (Huh7.5; 72 h).
For `COc1cccc(-c2n[nH]c(SCc3ccccn3)n2)c1OC`, the cytostasis was -1% (CHO-WBL; micronucleus test; 50 µg/mL, 3 h, together with: rat liver S9).
For `N#Cc1ccc(Nc2nc(N)cc(Oc3ccc(-c4ccc(F)cc4)cc3)n2)cc1`, the CC50 was 20.4 ± 7.53 µM (MT4 uninfected).
`O=C(CNc1nc(NS(=O)(=O)c2ccccc2)ncc1-c1nc2ccccc2s1)c1ccc(Br)cc1` — result for “maximum non-toxic concentration”: 120 µg/mL (Huh7.5; cytotoxicity; 72 h).
For `N#Cc1ccc(Nc2nc(N)cc(Oc3ccc(-c4ccc(F)cc4)cc3F)n2)cc1`, the CC50 was > 256 µM (MT4 uninfected).
`COc1cc(O)c2c(c1)C(=O)c1cc(C)cc(O)c1C2=O` has a viability of 100 ± 15.5% (HK-2 co-cultured with HepaRG; MTT; 33.33 µM, 24 h; reference: untreated control).
For `COC(=O)c1c(C)ncn1CC(c1c[nH]c2ccc(C)cc12)c1c[nH]c2ccc(C)cc12`, the CC50 was > 20 µM (human primary fibroblasts; viability, MTS; 24 h).
`CCSC(SCC)=C(C#N)c1nc2ccccc2s1` — result for “maximum non-toxic concentration”: 100 µg/mL (Huh7.5; 72 h).
Under “maximum non-toxic concentration”, `Cc1ccc(S(=O)(=O)Nc2nc(N)c(-c3nc4ccccc4s3)c(-c3ccc(Cl)cc3)n2)cc1` is recorded as 100 µg/mL (Huh7.5; cytotoxicity; 72 h).
With `COc1c(O)c(C)cc2c1C(=O)c1c(cc(O)c(O)c1O)C2=O` the viability was 87.1 ± 7.12% (HK-2 co-cultured with HepaRG; MTT; 66.67 µM, 24 h; reference: untreated control).
For `CC1=CC(=O)c2ccccc2C1=O`, the IC50 was 22.4 ± 0.33 µM (MRC-5; cytotoxicity, MTT; 48 h, 10% FBS).
With `CN1C(=O)C(=O)c2cc3c(c4c2c1cc1ccccc14)OCO3` the inhibition was < 50% (MRC-5; cytotoxicity, MTT; 50 µg/mL, 48 h).
With `CC(C)(c1ccc(O)cc1)c1ccc(O)cc1` the viable cells was 53% (HepG2 spheroids, dissociated; annexin V-FITC/PI flow cytometry; 10 µM, 96 h).
For `O=C(O)c1cc(O)c2c(c1)C(=O)c1cccc(O[C@@H]3O[C@H](CO)[C@@H](O)[C@H](O)[C@H]3O)c1C2=O`, the cell viability was 99.3 ± 11.4% (HK-2 co-cultured with HepaRG; MTT; 66.67 µM, 24 h; reference: untreated control).
`Cc1ccc(S(=O)(=O)Nc2nc(N)c(-c3nc4ccccc4s3)c(-c3ccc(F)cc3)n2)cc1`: “maximum non-toxic concentration” 100 µg/mL (Huh7.5; cytotoxicity; 72 h).
With `N#Cc1ccc(Nc2nc(N)cc(Oc3c(F)cc(-c4ccccc4F)cc3F)n2)cc1` the CC50 was 95.3 ± 52.9 µM (MT4 uninfected).

For quick reference, copied from above:
`O=C(CNc1nc(NS(=O)(=O)c2ccccc2)ncc1-c1nc2ccccc2s1)c1ccc(Br)cc1` — result for “maximum non-toxic concentration”: 120 µg/mL (Huh7.5; cytotoxicity; 72 h).
`Cc1noc(C)c1Cn1cc(N2C(=O)CN(Cc3cccc(O)c3)C2=O)cn1`: “aberrant cells without gaps” 1% (human blood lymphocytes; 494.3 µg/mL, 3 h).
With `N#Cc1ccc(Nc2nc(N)cc(Oc3c(F)cc(-c4ccccc4F)cc3F)n2)cc1` the CC50 was 95.3 ± 52.9 µM (MT4 uninfected).
With `CC(C)(c1ccc(O)cc1)c1ccc(O)cc1` the viable cells was 53% (HepG2 spheroids, dissociated; annexin V-FITC/PI flow cytometry; 10 µM, 96 h).
`CSc1c(-c2nc3ccccc3[nH]2)c(N)n(NS(=O)(=O)c2ccccc2)c(=O)c1C#N` — result for “maximum non-toxic concentration”: 100 µg/mL (Huh7.5; 72 h).
